# Results collected from several papers.
# Protocols differ between the studies behind these lines. ± marks the error that the study gave.
# Organism: Escherichia coli
SMILES,test,test system,conditions,scale,MIC
Cc1cc(N)c2cc(NC(=O)c3ccc4c(-c5cccc(N)c5)cccc4c3)ccc2n1,,ΔtolC efflux-deficient,,,12.5 µM
CCCCCCCCCCCCCCCCCCSCC1OC(OC2C(N)CC(N)C(OC3OC(CN)C(O)CC3N)C2O)C(O)C(N)C1O (stereo not shown),,BL21(DE3) AAC(3)-IV,,,> 150 µg/mL
NCCCC[C@H](NC(=O)[C@H](CCCCN)NC(=O)[C@H](Cc1ccccc1)NC(=O)[C@@H]1CCCN1C(=O)[C@H](Cc1c[nH]c2ccccc12)NC(=O)[C@H](Cc1c[nH]c2ccccc12)NC(=O)[C@H](Cc1c[nH]c2ccccc12)NC(=O)[C@@H]1CCCN1C(=O)[C@H](Cc1ccccc1)NC(=O)[C@H](CCCCN)NC(=O)[C@@H](N)CCCCN)C(N)=O,,"ATCC 8937, RPMI medium","24 h, 37 °C",,15 µM
CC(C)C[C@@H]1NC(=O)[C@H](C)NC(=O)[C@H](C)NC(=O)[C@H](NC(=O)[C@H](CO)NC(=O)[C@@H](CCCCN)NC(=O)[C@@H](CC(C)C)NC(=O)[C@@H](N)Cc2ccccc2)[C@H](C(N)=O)OC1=O,,ATCC 10798,TFA salt,,> 32 µg/mL
CCCCCCCCCCCC[S+]([O-])CC1OC(OC2C(N)CC(N)C(OC3OC(CN)C(O)CC3N)C2O)C(O)C(N)C1O (mixture of isomers),,BL21(DE3) Eis-expressing,,,> 150 µg/mL
COc1cc2c(=O)c(C(=O)NCCNCCO)cn(Cc3ccccc3)c2cc1OCc1cccc(Br)c1,,ATCC 25922,,≥80% growth inhibition,< 0.25 µg/mL
OB(O)c1cnn(-c2cc(Cl)ncn2)c1,bacterial growth,TEM-3 ESBL clinical isolate,cefotaxime alone,,1 µg/mL
C#CCON=C1C(C)C(c2ccc(Cl)cc2)OC(c2ccc(Cl)cc2)C1C (stereo not shown),"microbial growth, broth dilution",MTCC443,24 h,,12.5 µg/mL
CC[C@H](C)[C@H](NC(=O)[C@@H](CCCNC(=N)N)NC(=O)[C@H](CCCNC(=N)N)NC(=O)[C@@H]1CCCN1C(=O)[C@@H]1CCCN1C(=O)[C@H](CCCNC(=N)N)NC(=O)[C@@H]1CCCN1C(=O)[C@H](CCCNC(=N)N)NC(=O)[C@@H]1CCCN1C(=O)[C@H](CC(C)C)NC(=O)[C@H](Cc1ccc(O)cc1)NC(=O)[C@@H]1CCCN1C(=O)[C@@H]1CCCN1C(=O)[C@H](CCCCN)NC(=O)[C@H](CCCNC(=N)N)NC(=O)[C@@H](N)C(C)C)C(=O)N[C@@H](Cc1ccc(O)cc1)C(=O)N[C@@H](CC(N)=O)C(=O)N[C@H](CCCNC(=N)N)C(N)=O,broth microdilution,BW25113,18 h,,8 µg/mL
CCCCCCCCCCCCCCCCCCCCCCSCC1OC(OC2C(N)CC(N)C(OC3OC(CN)C(O)CC3N)C2O)C(O)C(N)C1O (stereo not shown),,BL21(DE3),,,> 150 µg/mL
CC[C@H](C)[C@H](N)C(=O)N[C@@H](CC(C)C)C(=O)N[C@@H](CO)C(=O)N[C@@H](C)C(=O)N[C@@H](C)C(=O)N[C@@H](Cc1ccc(O)cc1)C(=O)N[C@@H](CO)C(=O)NCC(=O)N[C@H](C(=O)N[C@H](C(=O)N[C@@H](CO)C(=O)N[C@@H](CC(C)C)C(=O)N[C@H](C(=O)NCCCCCC(=O)N[C@@H](Cc1c[nH]c2ccccc12)C(N)=O)[C@@H](C)CC)[C@@H](C)CC)[C@@H](C)CC,,clinical pb3,,,5 to 10 µM
CO[C@@H](C(N)=O)[C@H](NC(=O)c1ccc(NC(=O)c2ccc([N+](=O)[O-])cc2)cc1)C(=O)Nc1ccc(C(=O)Nc2ccc(C(=O)Nc3ccc(C(=O)O)cc3)c(O)c2OC(C)C)cc1,,WT-3,,,0.06 µg/mL
CC[C@@H](C)[C@H]1NC(=O)[C@H]([C@@H](C)CC)NC(=O)[C@@H](CCCN)NC(=O)[C@@H](NC(=O)[C@@H](NC(=O)[C@@H](CCC(=O)O)NC(=O)[C@H](CC(C)C)NC(=O)[C@@H]2CSC([C@@H](N)[C@@H](C)CC)=N2)[C@@H](C)CC)CCCCNC(=O)[C@H](CC(N)=O)NC(=O)[C@@H](CC(=O)O)NC(=O)[C@H](Cc2c[nH]cn2)NC1=O,broth microdilution,"ATCC 25922, LB medium","18 h, 37 °C, with: ZnSO4 0.3 mM",,> 64 µg/mL
CC(C)C[C@H](NC(=O)[C@H](Cc1ccc(O)cc1)NC(=O)[C@@H]1CCCN1C(=O)[C@H](CCCNC(=N)N)NC(=O)[C@@H]1CCCN1C(=O)[C@H](CCCCN)NC(=O)[C@H](CC(=O)O)NC(=O)[C@@H]1CCCN1C(=O)[C@H](CCCNC(=N)N)NC(=O)C1(N)CCCCC1)C(=O)N1CCC[C@H]1C(=O)N[C@@H](CCCNC(=N)N)C(=O)N1CCC[C@H]1C(=O)N[C@@H](CCCNC(=N)N)C(=O)N1CCC[C@H]1C(=O)N1CCC[C@H]1C(=O)N[C@@H](CCCNC(=N)N)C(=O)N1CCC[C@H]1C(=O)N[C@H](C(=O)N[C@@H](CCCNC(=N)N)C(=O)N[C@@H](CSCc1ccccc1CSC[C@H](NC(=O)[C@H](CCCNC(=N)N)NC(=O)[C@@H](NC(=O)[C@@H]1CCCN1C(=O)[C@H](CCCNC(=N)N)NC(=O)[C@@H]1CCCN1C(=O)[C@@H]1CCCN1C(=O)[C@H](CCCNC(=N)N)NC(=O)[C@@H]1CCCN1C(=O)[C@H](CCCNC(=N)N)NC(=O)[C@@H]1CCCN1C(=O)[C@H](CC(C)C)NC(=O)[C@H](Cc1ccc(O)cc1)NC(=O)[C@@H]1CCCN1C(=O)[C@H](CCCNC(=N)N)NC(=O)[C@@H]1CCCN1C(=O)[C@H](CCCCN)NC(=O)[C@H](CC(=O)O)NC(=O)[C@@H]1CCCN1C(=O)[C@H](CCCNC(=N)N)NC(=O)C1(N)CCCCC1)C(C)C)C(=O)NN)C(=O)NN)C(C)C,bacterial growth,"ATCC 25922, 100% Mueller-Hinton broth","90 min, 37 °C, strain ATCC 25922",,8.5 ± 0.7 µg/mL
CCCCCCCCCCCCCCCCCC(=O)N[C@@H](CCCCN)C(=O)N[C@@H](CCCCN)C(=O)N[C@@H](CCCNC(=N)N)C(=O)N[C@@H](CCCCN)C(=O)N[C@@H](CCCCN)C(N)=O,broth microdilution,"K12, water pH 7","18 h, 37 °C",,16 µg/mL
Cc1cc(N)c2cc(NC(=O)c3ccc4c(-c5cccc(O)c5)cccc4c3)ccc2n1,,hyperporinated wild type,,,> 200 µM
Cc1c2oc3c(C)ccc(C(=O)N[C@@H]4C(=O)N[C@H](C(C)C)C(=O)N5[C@@H](C)CC[C@H]5C(=O)N(C)CC(=O)N(C)[C@@H](C(C)C)C(=O)O[C@@H]4C)c3nc-2c(C(=O)N[C@@H]2C(=O)N[C@H](C(C)C)C(=O)N3CC(=O)C[C@H]3C(=O)N(C)CC(=O)N(C)[C@@H](C)C(=O)O[C@@H]2C)c(N)c1=O,broth microdilution,ATCC 12435,16 to 48 h,,> 9.57 µg/mL
CC[C@H](C)[C@H](NC(=O)[C@H](CO)NC(=O)[C@H](CO)NC(=O)[C@H](Cc1ccccc1)NC(=O)CN)C(=O)N[C@@H](Cc1ccccc1)C(=O)N[C@@H](CCCNC(=N)N)C(N)=O,,ATCC 8739,with: 0.5 mM KCl,,> 128 µM
CC(C)[C@H](NC(=O)[C@H]1NC(=O)[C@H](CO)NC(=O)[C@H](CC(N)=O)NC(=O)[C@@H](N)Cc2c[nH]c3cc(ccc23)C1C(N)=O)C(=O)N[C@H]1Cc2cn(cn2)C(c2ccc(O)cc2)[C@@H](C(=O)N[C@@H](CCCNC(=N)N)C(=O)N[C@@H](Cc2ccccc2)C(=O)O)NC(=O)[C@H](CO)NC1=O (stereo partly shown),,K-12 MG1655,,,16 µg/mL
Cc1ccc2nc(C)c(C(=O)NCc3cccs3)n2c1,broth microdilution,3,,,> 64 µM
CC[C@H](C)[C@H](NC(=O)[C@H](NC(=O)[C@@H](CCC(N)=O)NC(=O)[C@@H](N)COC(=O)[C@@H](NC(=O)[C@@H](Cc1ccccc1)NC)[C@@H](C)CC)[C@@H](C)CC)C(=O)N[C@@H](CO)C(=O)N[C@H]1C(=O)N[C@@H](C)C(=O)N[C@@H](C2CCCCC2)C(=O)N[C@@H]([C@@H](C)CC)C(=O)O[C@H]1C,broth microdilution,"ATCC 10798, Mueller-Hinton broth","16 h, 37 °C",,> 8 µg/mL
CC(C)C[C@@H]1NC(=O)[C@@H](CC(C)C)NC(=O)[C@H](CCN)NC(=O)[C@@H](NC(=O)[C@H](CCN)NC(=O)[C@@H](N)[C@@H](C)O)CCNC(=O)[C@H]([C@@H](C)O)NC(=O)[C@H](CCN)NC(=O)[C@H](CCN)NC1=O,broth microdilution,"MCR2, colistin-resistant, mcr plasmid, CAMHB with polysorbate-80","16 h, 37 °C, with: 0.002% polysorbate-80",,> 64 µg/mL
CC(C)C[C@H](NC(=O)[C@H](CC(C)C)NC(=O)[C@H](CCCCN)NC(=O)CNC(=O)[C@H](CC(C)C)NC(=O)[C@H](CC(C)C)NC(=O)[C@H](CO)NC(=O)[C@H](CC(C)C)NC(=O)[C@H](CC(C)C)NC(=O)[C@@H]1CCCN1C(=O)[C@H](CC(C)C)NC(=O)[C@H](CC(C)C)NC(=O)CN)C(N)=O,broth microdilution,K12,,,25 µM
CCCCCCCCCCCCCC(=O)N[C@@H](CCCCN)C(=O)N[C@@H](CCCCN)C(=O)N[C@@H](CCCCN)C(=O)N[C@@H](CCCCN)C(N)=O,broth microdilution,"K12, water pH 7","18 h, 37 °C",,32 µg/mL
CC[C@H](C)[C@H](NC(=O)CNC(=O)[C@@H](NC(=O)[C@@H](N)Cc1ccccc1)[C@@H](C)CC)C(=O)N[C@@H](CCSC)C(=O)N[C@@H](C)C(=O)N[C@H](C(=O)N[C@@H](CC(C)C)C(=O)N[C@@H](C)C(=O)N[C@@H](CO)C(=O)N[C@@H](CC(C)C)C(=O)N[C@H](C(=O)N[C@H](C(=O)N1CCC[C@H]1C(=O)N[C@@H](CCCCN)C(=O)N[C@@H](CC(C)C)C(=O)N[C@H](C(=O)N[C@@H](CCC(=O)O)C(=O)N[C@@H](CCCCN)C(=O)N[C@H](C(=O)N[C@@H](CCCCN)C(=O)N[C@@H](CCC(N)=O)C(=O)N[C@@H](C)C(=O)N[C@@H](CCCNC(=N)N)C(N)=O)[C@@H](C)CC)[C@@H](C)CC)[C@@H](C)CC)C(C)C)[C@@H](C)O,broth microdilution,ATCC 35218,,,> 50 µM

# A few entries again:
SMILES,test,test system,conditions,scale,MIC
CC(C)C[C@@H]1NC(=O)[C@@H](CC(C)C)NC(=O)[C@H](CCN)NC(=O)[C@@H](NC(=O)[C@H](CCN)NC(=O)[C@@H](N)[C@@H](C)O)CCNC(=O)[C@H]([C@@H](C)O)NC(=O)[C@H](CCN)NC(=O)[C@H](CCN)NC1=O,broth microdilution,"MCR2, colistin-resistant, mcr plasmid, CAMHB with polysorbate-80","16 h, 37 °C, with: 0.002% polysorbate-80",,> 64 µg/mL
Cc1cc(N)c2cc(NC(=O)c3ccc4c(-c5cccc(N)c5)cccc4c3)ccc2n1,,ΔtolC efflux-deficient,,,12.5 µM
